{"data": "Results from different studies", "note": "Every numbered part comes from another study and shows a few of its results, in no order. Positions count from the first letter of the parent shown."}
{"data": "Block 1", "target": "Ras GTPase-activating protein-binding protein 1, C-terminal RGG region (G3BP1, Homo sapiens, UniProt Q13283)", "technique": "RNA Bind-n-Seq", "form": "RNA", "matrix": "in vitro", "concentration": "1 µM", "setting": "whole 134-nt RNA, ends assumed", "added": "150 mM KCl", "baseline": "input library", "direction": "higher = stronger binding", "constant ends, left off below": "GGGAGUUCUACAGUCCGACGAUC … UGGAAUUCUCGGGUGUCAAGG", "sequence of UniProt Q13283 (whole entry, looked up)": "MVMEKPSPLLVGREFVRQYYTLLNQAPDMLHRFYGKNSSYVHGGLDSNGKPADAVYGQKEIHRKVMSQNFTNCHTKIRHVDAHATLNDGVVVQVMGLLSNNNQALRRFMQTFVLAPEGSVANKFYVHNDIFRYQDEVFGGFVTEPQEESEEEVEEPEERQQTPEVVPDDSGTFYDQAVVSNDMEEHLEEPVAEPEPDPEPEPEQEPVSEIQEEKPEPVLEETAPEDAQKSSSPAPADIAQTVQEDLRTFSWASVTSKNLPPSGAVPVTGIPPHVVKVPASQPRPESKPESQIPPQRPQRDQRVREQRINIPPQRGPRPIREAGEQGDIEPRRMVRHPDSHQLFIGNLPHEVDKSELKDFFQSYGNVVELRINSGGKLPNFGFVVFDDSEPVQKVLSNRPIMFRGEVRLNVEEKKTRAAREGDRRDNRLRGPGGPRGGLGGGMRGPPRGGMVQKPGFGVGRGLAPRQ"}
{"Strand": "UCCUGUGCUACACAUCGUAUGUACCGAAUCGGUUUUUUUGGAAAAAAAGGUUUUUUUGGAAAGUAUUAUGUUACGCCGUUCGGAUCUGCA", "log2 enrichment": -1.57}
{"Strand": "CUGUGCUACACAUCGUAUGUACCGAAUCGGGGAAAAAAAGGGGAAAAAAAGGAAAAAAAGGGAAAGUAUUAUGUUACGCCGUUCGGAUCU", "log2 enrichment": -1.3}
{"Strand": "UCCUGUGCUACACAUCGUAUGUACCGAAUCGGGGCCCCCGGGGCCCCCGGGGCCCCCGGAAAGUAUUAUGUUACGCCGUUCGGAUCUGCA", "log2 enrichment": -1.61}
{"Strand": "UCCUCAAGUCCUGUGCUACACAUCGUAUGUACCGAAUCGGGCGGCGGGCGGGAAAGUAUUAUGUUACGCCGUUCGGAUCUGCACUUCCAG", "log2 enrichment": 0.451}
{"Strand": "ACCAUGCAGGUGGGCAUCUUUGGGAAGUGGGGCAAGGGCGGGAUAGGGAGGGGGGUAACACUUUGGGAACAGGUGGUCCCAGGUCGUUUC", "log2 enrichment": -0.747}
{"Strand": "AAGUCCUGUGCUACACAUCGUAUGUACCGAAUCGGGUUUUUUUGGGUUUGGGUGGGAAAGUAUUAUGUUACGCCGUUCGGAUCUGCACUU", "log2 enrichment": 0.844}
{"Strand": "GUGCUACACAUCGUAUGUACCGAAUCGGGGAAAAAAAGGGGAAAAAAAGGGGAAAAAAAGGGGAAAGUAUUAUGUUACGCCGUUCGGAUC", "log2 enrichment": 0.386}
{"Strand": "CUCAAGUCCUGUGCUACACAUCGUAUGUACCGAAUCGGAAAGGAAAAAGGAGGAAAGUAUUAUGUUACGCCGUUCGGAUCUGCACUUCCA", "log2 enrichment": -1.3}
{"Strand": "UGGGAGGUGGAUUUUGUUUAUUUUUUUAGCUCAUUUCCAGGGGUGGGAACUUUUUUUUAAUAUGUGUCAUGAAUAAAGUUGUUUUUGAAA", "log2 enrichment": 3.57}
{"Strand": "GUCCUGUGCUACACAUCGUAUGUACCGAAUCGGCCCCCGGGGCCCCCGGCCCCCGGGGAAAGUAUUAUGUUACGCCGUUCGGAUCUGCAC", "log2 enrichment": -1.41}
{"Strand": "GGUGGAAUCCAUAGAGCUCCCCAUGGACAACAAGACCAAUAAGAGGCGUGGGUUCUGCUUUAUUACCUUUAAGGAAGAAGAACCAGUGAA", "log2 enrichment": -1.21}
{"Strand": "ACCAUGCAGGUGGGCAUCUAUGGGAAGUGGGGCAAGGGGGGGAUAGGGAGGGGGGUAACACUUUGGGAACAGGUGGUCCCAGGUCGUUUC", "log2 enrichment": -1.06}
{"Strand": "ACCAUGCAGGUGGGCAUCUUUGGGAAGUGGGGCAAGGGGGGGAUAGGGAGGGGGGUAACACUUUGGGAACAGGUGGUGCCAGGUCGUUUC", "log2 enrichment": 2.18}
{"Strand": "GCAGGAAGUAAAAACAAAUGGAAAUGCUUCGGAUAGUGGCGGGGGUGGGGGUUGCUAAGGAAAGGGUGGGAUGGGAGUGGGUAAAGAGUU", "log2 enrichment": 1.27}
{"data": "Block 2", "target": "Histone acetyltransferase KAT6A, both winged helices, GST fusion (KAT6A, Homo sapiens, UniProt Q92794, residues 1-181)", "technique": "protein binding microarray", "form": "double-stranded DNA, one strand shown", "matrix": "in vitro", "concentration": "not given", "setting": "8-mer, flanks averaged, mean of 2 arrays, mostly near background", "baseline": "not given", "direction": "higher = stronger binding", "Residues (chain)": "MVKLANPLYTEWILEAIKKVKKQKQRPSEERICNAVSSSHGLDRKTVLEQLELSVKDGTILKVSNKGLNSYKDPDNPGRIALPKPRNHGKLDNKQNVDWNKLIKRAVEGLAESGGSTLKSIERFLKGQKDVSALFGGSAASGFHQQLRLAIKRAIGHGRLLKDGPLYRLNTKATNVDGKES"}
{"Strand": "ATGACATG", "E-score": 0.0444}
{"Strand": "CCGCACCG", "E-score": 0.262}
{"Strand": "CGTCGGGA", "E-score": 0.294}
{"Strand": "CGCAGGAA", "E-score": 0.0481}
{"Strand": "GCGAAAGA", "E-score": -0.0595}
{"Strand": "ATCGACGC", "E-score": 0.195}
{"Strand": "AGTGTCTG", "E-score": -0.304}
{"Strand": "GAGTTCAA", "E-score": -0.152}
{"Strand": "CACATAGA", "E-score": -0.117}
{"Strand": "ACAGGCAC", "E-score": -0.0718}
{"Strand": "CCATGTCG", "E-score": -0.165}
{"Strand": "ACGGGGGA", "E-score": -0.0865}
{"Strand": "TGGATGAA", "E-score": -0.19}
{"Strand": "GAAAGTGA", "E-score": -0.22}
{"Strand": "AGCTGAGG", "E-score": -0.265}
{"Strand": "AGGGTTAA", "E-score": -0.167}
{"Strand": "ATACCTAA", "E-score": -0.194}
{"data": "Block 3", "target": "CCND1, cyclin fold, Cln2 fusion (human)", "technique": "yeast growth competition, sequencing", "matrix": "yeast", "setting": "strong parent motif", "baseline": "not given", "direction": "higher = stronger binding", "starting sequence": "PKN2 docking peptide (human); VSAVQKLDFSDTM; partner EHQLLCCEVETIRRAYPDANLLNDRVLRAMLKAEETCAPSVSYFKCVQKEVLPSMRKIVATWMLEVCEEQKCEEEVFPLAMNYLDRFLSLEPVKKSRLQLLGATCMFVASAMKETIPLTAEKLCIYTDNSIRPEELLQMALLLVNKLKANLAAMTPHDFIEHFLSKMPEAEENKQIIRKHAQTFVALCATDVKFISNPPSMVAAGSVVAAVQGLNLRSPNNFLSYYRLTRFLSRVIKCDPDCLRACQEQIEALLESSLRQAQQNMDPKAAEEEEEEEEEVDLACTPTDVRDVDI"}
{"Change": "KSAVQKLDFSDTM [V1K]", "normalised enrichment score": 1.93}
{"Change": "VYAVQKLDFSDTM [S2Y]", "normalised enrichment score": 1.39}
{"Change": "VSAVQKLAFSDTM [D8A]", "normalised enrichment score": 0.944}
{"Change": "VSAVQKLDWSDTM [F9W]", "normalised enrichment score": 0.113}
{"Change": "VSAVQKLDFNDTM [S10N]", "normalised enrichment score": 1.23}
{"Change": "VSAVQKLDFSDTV [M13V]", "normalised enrichment score": 2.36}
{"Change": "VSAVQKLDFSTTM [D11T]", "normalised enrichment score": 1.59}
{"Change": "VSAVQKMDFSDTM [L7M]", "normalised enrichment score": 0.289}
{"Change": "VSAVQKLDNSDTM [F9N]", "normalised enrichment score": 0.341}
{"Change": "VSAVQKPDFSDTM [L7P]", "normalised enrichment score": 0.189}
{"Change": "VSAVQKQDFSDTM [L7Q]", "normalised enrichment score": -0.266}
{"Change": "VSAMQKLDFSDTM [V4M]", "normalised enrichment score": 1.19}
{"Change": "CSAVQKLDFSDTM [V1C]", "normalised enrichment score": 2.2}
{"Change": "VSAVQKLDFSYTM [D11Y]", "normalised enrichment score": 1.34}
{"Change": "VSAVQKLDFSDDM [T12D]", "normalised enrichment score": 2.34}
{"Change": "VSAVQKSDFSDTM [L7S]", "normalised enrichment score": -0.178}
{"Change": "VSAVQKLRFSDTM [D8R]", "normalised enrichment score": 0.251}
{"Change": "VSAVQKLDFSATM [D11A]", "normalised enrichment score": 1.64}
{"Change": "VSAVQKLDFSVTM [D11V]", "normalised enrichment score": 1.06}
{"Change": "VSAVQLLDFSDTM [K6L]", "normalised enrichment score": 1}
{"data": "Block 4", "target": "Prothrombin, mature alpha-thrombin (F2, Homo sapiens, UniProt P00734)", "technique": "aptamer microarray, sandwich", "form": "DNA with 2'F-ANA", "matrix": "in vitro", "concentration": "200 nM", "setting": "whole 15-mer aptamer, many near background", "added": "Cy3 exosite-II aptamer, 400 nM", "direction": "higher = stronger binding", "strand": "GGTTGGTGTGGTTGG"}
{"Modification": "2'F-ANA at 1 2 4 6 7 8 10 11 12", "mean fluorescence intensity [a.u.]": 56.8}
{"Modification": "2'F-ANA at 1 2 3 7 9 11", "mean fluorescence intensity [a.u.]": 189}
{"Modification": "2'F-ANA at 1 2 4 7 9 12 13 14", "mean fluorescence intensity [a.u.]": 53.8}
{"Modification": "2'F-ANA at 5 8 9 11 12 13 15", "mean fluorescence intensity [a.u.]": 99.3}
{"Modification": "2'F-ANA at 2 3 4 7 10 12", "mean fluorescence intensity [a.u.]": 394}
{"Modification": "2'F-ANA at 1 2 5 6 8 9 10 13 14", "mean fluorescence intensity [a.u.]": 61.9}
{"Modification": "2'F-ANA at 1 2 5 7 8 14", "mean fluorescence intensity [a.u.]": 58.4}
{"Modification": "2'F-ANA at 2 4 5 7 8 9 12 13 15", "mean fluorescence intensity [a.u.]": 101}
{"Modification": "2'F-ANA at 2 4 5 6 9 10 12 13 15", "mean fluorescence intensity [a.u.]": 101}
{"Modification": "2'F-ANA at 2 3 4 5 6 9 11 12 14", "mean fluorescence intensity [a.u.]": 52.1}
{"Modification": "2'F-ANA at 2 3 4 5 6 7 8 10 14", "mean fluorescence intensity [a.u.]": 100}
{"Modification": "2'F-ANA at 1 2 4 8 11 12 14", "mean fluorescence intensity [a.u.]": 61.1}
{"Modification": "2'F-ANA at 4 5 6 7 8 9 10 14 15", "mean fluorescence intensity [a.u.]": 51.1}
{"Modification": "2'F-ANA at 3 4 7 9 10 12 13 14 15", "mean fluorescence intensity [a.u.]": 192}
{"Modification": "2'F-ANA at 1 2 3 4 5 6 8 10 11 13 14", "mean fluorescence intensity [a.u.]": 62.7}
{"Modification": "2'F-ANA at 3 6 10 13", "mean fluorescence intensity [a.u.]": 478}
{"Modification": "2'F-ANA at 4 5 6 7 10 11 13", "mean fluorescence intensity [a.u.]": 56.4}
{"Modification": "2'F-ANA at 2 6 10 11 12 15", "mean fluorescence intensity [a.u.]": 199}
{"Modification": "2'F-ANA at 1 7 8 11 13 14", "mean fluorescence intensity [a.u.]": 69.1}
{"Modification": "2'F-ANA at 3 6 7 8 9 10 13 14 15", "mean fluorescence intensity [a.u.]": 341}
{"Modification": "2'F-ANA at 7 8 9 11 12", "mean fluorescence intensity [a.u.]": 742}
{"Modification": "2'F-ANA at 1 4 6 8 9 10 11 13 14 15", "mean fluorescence intensity [a.u.]": 68.2}
{"Modification": "2'F-ANA at 1 3 5 6 7 9 10 11 13 14", "mean fluorescence intensity [a.u.]": 128}
{"Modification": "2'F-ANA at 2 3 9 10 11 13", "mean fluorescence intensity [a.u.]": 339}
{"Modification": "2'F-ANA at 2 3 4 5 8 10 11 12 13 14 15", "mean fluorescence intensity [a.u.]": 60.1}
{"data": "Block 5", "target": "ABI1, truncated, D143A, DHFR fusion (Arabidopsis thaliana)", "technique": "DHFR PCA, deep sequencing", "matrix": "yeast", "setting": "methotrexate growth selection, single substitutions", "added": "(+)-ABA 0.11 µM", "baseline": "wild-type fitted maximum", "direction": "higher = stronger binding", "starting sequence": "PYL1, truncated, DHFR fusion (Arabidopsis thaliana); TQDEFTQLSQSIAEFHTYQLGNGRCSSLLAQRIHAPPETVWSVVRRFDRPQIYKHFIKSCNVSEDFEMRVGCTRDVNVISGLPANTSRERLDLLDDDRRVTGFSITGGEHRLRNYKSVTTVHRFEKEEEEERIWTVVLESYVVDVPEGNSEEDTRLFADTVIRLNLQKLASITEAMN"}
{"Change": "D144P", "relative binding score": "-2.14%"}
{"Change": "Q19E", "relative binding score": "55.6%"}
{"Change": "Q7C", "relative binding score": "31.4%"}
{"Change": "T101G", "relative binding score": "-8.56%"}
{"Change": "M176F", "relative binding score": "8.81%"}
{"Change": "D3Q", "relative binding score": "52.9%"}
{"Change": "T1Q", "relative binding score": "26.4%"}
{"Change": "R163H", "relative binding score": "10.2%"}
{"Change": "H34L", "relative binding score": "30.4%"}
{"Change": "K58S", "relative binding score": "8.43%"}
{"Change": "A13N", "relative binding score": "35.8%"}
{"Change": "T101K", "relative binding score": "-3.59%"}
{"Change": "F15G", "relative binding score": "0.69%"}
{"Change": "A13T", "relative binding score": "26.1%"}
{"Change": "G102W", "relative binding score": "6.14%"}
{"Change": "Q2S", "relative binding score": "30.4%"}
{"Change": "F103C", "relative binding score": "-6.14%"}
{"Change": "E151A", "relative binding score": "55.9%"}
{"note": "Repeated from above (block 5):"}
{"Change": "Q7C", "relative binding score": "31.4%"}
{"Change": "T101G", "relative binding score": "-8.56%"}
{"Change": "M176F", "relative binding score": "8.81%"}
{"Change": "D3Q", "relative binding score": "52.9%"}
{"Change": "T1Q", "relative binding score": "26.4%"}
{"Change": "R163H", "relative binding score": "10.2%"}
{"Change": "H34L", "relative binding score": "30.4%"}
